Assay results pooled from the literature.
Each line is one published result; not all experiments were run side by side. Several values in a cell are separate wells, animals, samples, runs or records. ± marks the error that the study gave.

Compound | cell line | test | setting | how to read | quantity | result
CSCC[C@H](N)C(=O)N[C@@H](C)C(=O)N[C@@H](Cc1c[nH]c2ccccc12)C(=O)N[C@@H](Cc1c[nH]cn1)C(=O)N[C@@H](CC(=O)O)C(=O)N[C@@H](CC(=O)O)C(=O)N[C@@H](CCC(=O)O)C(=O)N[C@@H](CCC(=O)O)C(=O)N[C@@H](Cc1ccccc1)C(=O)N[C@@H](C)C(=O)N[C@@H](CCCNC(=N)N)C(=O)N[C@@H](CCCNC(=N)N)C(=O)N[C@@H](CCCNC(=N)N)C(=O)N[C@@H](CCCNC(=N)N)C(=O)NCCCCCC(=O)NCCCCC(NC(=O)CCCCCNC(=O)[C@H](CCCNC(=N)N)NC(=O)[C@H](CCCNC(=N)N)NC(=O)[C@H](CCCNC(=N)N)NC(=O)[C@H](CCCNC(=N)N)NC(=O)[C@H](C)NC(=O)[C@H](Cc1ccccc1)NC(=O)[C@H](CCC(=O)O)NC(=O)[C@H](CCC(=O)O)NC(=O)[C@H](CC(=O)O)NC(=O)[C@H](CC(=O)O)NC(=O)[C@H](Cc1c[nH]cn1)NC(=O)[C@H](Cc1c[nH]c2ccccc12)NC(=O)[C@H](C)NC(=O)[C@@H](N)CCSC)C(=O)NCCCCC(NC(=O)C(CCCCNC(=O)CCCCCNC(=O)[C@H](CCCNC(=N)N)NC(=O)[C@H](CCCNC(=N)N)NC(=O)[C@H](CCCNC(=N)N)NC(=O)[C@H](CCCNC(=N)N)NC(=O)[C@H](C)NC(=O)[C@H](Cc1ccccc1)NC(=O)[C@H](CCC(=O)O)NC(=O)[C@H](CCC(=O)O)NC(=O)[C@H](CC(=O)O)NC(=O)[C@H](CC(=O)O)NC(=O)[C@H](Cc1c[nH]cn1)NC(=O)[C@H](Cc1c[nH]c2ccccc12)NC(=O)[C@H](C)NC(=O)[C@@H](N)CCSC)NC(=O)CCCCCNC(=O)[C@H](CCCNC(=N)N)NC(=O)[C@H](CCCNC(=N)N)NC(=O)[C@H](CCCNC(=N)N)NC(=O)[C@H](CCCNC(=N)N)NC(=O)[C@H](C)NC(=O)[C@H](Cc1ccccc1)NC(=O)[C@H](CCC(=O)O)NC(=O)[C@H](CCC(=O)O)NC(=O)[C@H](CC(=O)O)NC(=O)[C@H](CC(=O)O)NC(=O)[C@H](Cc1c[nH]cn1)NC(=O)[C@H](Cc1c[nH]c2ccccc12)NC(=O)[C@H](C)NC(=O)[C@@H](N)CCSC)C(N)=O (stereo partly shown) | mouse C57BL/6 BMMs |  | 0.1 µM, 3 days, with: RANKL | baseline: untreated control | osteoclast formation | 57%
CC(C)CC(O)(CC(C)C)c1cn(C(=O)N2CCCC2)nn1 | mouse T-cells | SILAC proteomics, item: Serf2 | 1 nM, 6 h, single peptides, unit not given | baseline: DMSO | protein level | 0.97 and 1.13
O=C(C[Se]C(=O)c1cccnc1Nc1cccc(C(F)(F)F)c1)Nc1cccc(C(F)(F)F)c1 | NCI60 colon subpanel | NCI60 five-dose screen |  |  | CC50 | 24.9 µM
CC(C)C[C@H](NC(=O)[C@H](CC(=O)O)NC(=O)CNC(=O)[C@@H](N)CCCNC(=N)N)C(=O)N[C@@H](C)C(=O)N[C@H](C(=O)N[C@@H](CC(C)C)C(=O)N[C@@H](CCCNC(=N)N)C(=O)N[C@@H](CCC(N)=O)C(=O)N[C@@H](CC(C)C)C(=O)N[C@@H](C)C(=O)N[C@@H](CCC(N)=O)C(=O)N[C@@H](CCC(=O)O)C(=O)N[C@@H](CC(=O)O)C(=O)NCC(=O)N[C@H](C(=O)N[C@H](C(=O)NCC(=O)N[C@H](C(=O)N[C@@H](CCCNC(=N)N)C(=O)NCCOCCOCCOCCOCCOCCOCCOCCOCCOCCOCCOCCOCCC(=O)N[C@@H](CS)C(N)=O)C(C)C)C(C)C)C(C)C)[C@@H](C)O | MDA-MB-231 breast cancer | cell binding, phage binding, item: output/input phage | 10 min, 37 °C | baseline: control phage | selectivity ratio | 1 ± 0.23
Cc1cc(Oc2nc(N3CC[C@@H](c4ccncc4)C3)ncc2F)[nH]n1 | kidney cancer cell lines | cell proliferation | average over lines |  | IC50 | 46.8 µM
CC(C)(C)C(=O)OCOP(=O)(OCOC(=O)C(C)(C)C)C1CCCN(O)C1=O (stereo not shown) | NCI/ADR-RES |  |  |  | CC50 | > 100 µM
CC1CCC2C(C)C(OC(=O)CCC(=O)N3CCC(Nc4ccc(S(=O)(=O)NC(=O)c5ccc(N6CCN(CC7=C(c8ccc(Cl)cc8)CC(C)(C)CC7)CC6)cc5Oc5cnc6[nH]ccc6c5)cc4[N+](=O)[O-])CC3)OC3OC4(C)CCC1C32OO4 (stereo not shown) | THP-1 | annexin V/PI flow cytometry, item: annexin V+/PI+ | 3.2 µM, 24 h |  | late apoptotic cells | 31.6%
Cc1ccc(C(C)C)cc1.Cc1ccc(C(C)C)cc1.Cc1ccc(C(C)C)cc1.Cc1ccc(C(C)C)cc1.O=S(=O)(O)C(F)(F)F.O=S(=O)(O)C(F)(F)F.O=S(=O)(O)C(F)(F)F.O=S(=O)(O)C(F)(F)F.c1ccc2c3c4ccccc4c(c2c1)-c1cn(nn1)-c1cc[n+](cc1)[Ru-]1[O]c2ccc4c5c(ccc(c25)=[O+]1)=[O+][Ru-]([O]4)[n+]1ccc(cc1)-n1cc(nn1)-c1c2ccccc2c(c2ccccc12)-c1cn(nn1)-c1cc[n+](cc1)[Ru-]1[O]c2ccc4c5c(ccc(c25)=[O+]1)=[O+][Ru-]([O]4)[n+]1ccc(cc1)-n1cc-3nn1 | HCT-15 | cell growth, MTT | 24 h, 20 µM preincubated in medium 48 h at 37 °C |  | IC50 | 16.9 ± 0.9 µM
O=c1n(CCNCCOS(=O)(=O)c2ccccc2)c(=O)n(S(=O)(=O)c2ccccc2)c(=O)n1S(=O)(=O)c1ccccc1 | A549 | cell growth or viability, MTT | 200 µg/mL, 24 h |  | viability | 22.3%
O=C(C[Se]C(=O)c1cccs1)Nc1cccc(C(F)(F)F)c1 | NCI60 colon subpanel | NCI60 five-dose screen |  |  | mean TGI | 8.11 µM

A few entries again:
Compound | cell line | test | setting | how to read | quantity | result
O=C(C[Se]C(=O)c1cccnc1Nc1cccc(C(F)(F)F)c1)Nc1cccc(C(F)(F)F)c1 | NCI60 colon subpanel | NCI60 five-dose screen |  |  | CC50 | 24.9 µM
